Results of several laboratories.
Values joined by “and” are separate records of one study, mostly repeats; a detail may differ. ± gives the spread as reported. ≈ marks a conversion by molar mass, not a printed value.
Organism: Staphylococcus aureus

Compound | assay | test system | setting | how to read | measurement | result
CC(C)C[C@H](NC(=O)[C@H](CCCCN)NC(=O)OCC1c2ccccc2-c2ccccc21)C(=O)N[C@H](C(=O)N[C@@H](Cc1ccccc1)C(=O)N[C@@H](Cc1ccccc1)C(=O)N[C@@H](CCCCN)C(=O)NCC(=O)N[C@@H](Cc1ccccc1)C(=O)N[C@@H](C)C(=O)N[C@@H](Cc1c[nH]c2ccccc12)C(=O)N[C@@H](CC(N)=O)C(=O)N[C@H](C(=O)N[C@H]1CSSC[C@@H](C(=O)N[C@@H](Cc2c[nH]cn2)C(=O)N[C@@H](CCCNC(=N)N)C(=O)N[C@@H](CCCNC(=N)N)C(=O)N[C@@H](C)C(=O)N[C@@H](CC(N)=O)C(N)=O)NC(=O)[C@H](C(C)C)NC(=O)[C@H](CCCNC(=N)N)NC(=O)[C@H](C(C)C)NC(=O)CNC(=O)[C@H](CC(N)=O)NC(=O)[C@H](CCCNC(=N)N)NC(=O)[C@H](Cc2ccc(O)cc2)NC(=O)[C@H](C(C)C)NC1=O)C(C)C)C(C)C | bactericidal activity | CGMCC 1.9 | 24 h | – | Emax | -5.76 log CFU
CC[C@H](C)[C@H](NC(=O)[C@H](Cc1ccc(O)cc1)NC(=O)[C@@H](NC(=O)[C@H](Cc1ccc(O)cc1)NC(=O)[C@@H]1CCCN1C(=O)[C@@H](NC(=O)[C@H](C)N)[C@@H](C)CC)[C@@H](C)CC)C(=O)N[C@@H](Cc1c[nH]c2ccccc12)C(=O)N[C@@H](CCCNC(=N)N)C(=O)N[C@@H](CC(C)C)C(=O)N[C@@H](CC(C)C)C(=O)N[C@@H](CCCNC(=N)N)C(=O)N[C@@H](CCCCN)C(=O)NCC(=O)O | – | ATCC 19609 | 18 h, 37 °C | – | MBC | 3.75 µM (≈ 6.61 µg/mL)
COc1ccc2ccc3oc([N+](=O)[O-])cc3c2c1Br | REMA | – | – | – | MIC90 | < 0.25 µg/mL
CC[C@H](C)[C@H](N)C(=O)N[C@@H](CO)C(=O)N[C@@H](Cc1ccccc1)C(=O)N[C@@H](CC(C)C)C(=O)NCC(=O)N[C@@H](CO)C(=O)N[C@@H](CCCCN)C(=O)N[C@H](C(=O)N[C@H](C(=O)N[C@H](C(=O)N[C@@H](CC(C)C)C(=O)N[C@@H](CC(C)C)C(=O)N[C@@H](CCCCN)C(=O)N[C@@H](CCCNC(=N)N)C(=O)N[C@@H](CCCNC(=N)N)C(=O)N[C@@H](CCCCN)C(=O)N[C@@H](CCCNC(=N)N)C(=O)N[C@@H](CCCCN)C(=O)N[C@@H](CCCNC(=N)N)C(=O)N[C@@H](CCCCN)C(N)=O)C(C)C)C(C)C)C(C)C | checkerboard | – | unit not given, together with: oritavancin | lower means synergy | FICI | 0.19
C=CC[C@@H]1c2ccc(OC)c(OC)c2CN2CCc3cc4c(cc3[C@H]12)OCO4 | – | P2rx7 A312V/A312V mice, skin wound infection | dose not given, day 2 | reference: day 0 | relative wound size | 1.05 and 1.36 and 0.97 and 0.72 and 1.52
Cc1c2c(nn1C)CSCc1cc(n(C)n1)CSc1cc(c3ccccc3c1)OCCCc1c(C(=O)O)n(C)c3c-2c(Cl)ccc13 | label-free quantitative proteomics, refers to: SAOUHSC_02073 protein | SA113 | concentration not given | reference: untreated control | fold change | 0.0294
CC(C)C[C@@H](NC(=O)CNC(=O)[C@@H](CCCCN)NC(=O)[C@@H](CC(C)C)NC(=O)[C@@H](CCCCN)NC(=O)[C@@H](CCCNC(=N)N)NC(=O)[C@@H](CC(C)C)NC(=O)[C@@H](CC(C)C)NC(=O)[C@@H](CCCNC(=N)N)NC(=O)[C@H](N)CCCNC(=N)N)C(=O)N[C@H](CCCCN)C(=O)N[C@H](CCCCN)C(=O)N[C@H](Cc1ccc(O)cc1)C(=O)N[C@H](CC(C)C)C(=O)N[C@H](Cc1ccc(O)cc1)C(=O)N[C@H](Cc1ccccc1)C(=O)N[C@H](CCCCN)C(=O)N[C@H](CC(C)C)C(=O)N[C@H](CCC(N)=O)C(=O)N[C@H](CC(C)C)C(=O)N[C@H](CC(C)C)C(=O)N[C@H](CCCCN)C(=O)N[C@H](CCCCN)C(N)=O | – | KCTC 1621, Mueller-Hinton broth | together with: 4.5 mM KCl | – | MIC | 8 µM
CC[C@H](C)[C@H](NC(=O)[C@H](Cc1c[nH]c2ccccc12)NC(=O)[C@@H](NC(=O)[C@H](Cc1ccc(O)cc1)NC(=O)[C@@H]1CCCN1C(=O)[C@@H](NC(=O)[C@H](C)N)[C@@H](C)CC)[C@@H](C)CC)C(=O)N[C@@H](Cc1ccc(O)cc1)C(=O)N[C@@H](CCCNC(=N)N)C(=O)N[C@@H](CC(C)C)C(=O)N[C@@H](CC(C)C)C(=O)N[C@@H](CCCNC(=N)N)C(=O)N[C@@H](CCCCN)C(=O)NCC(N)=O | – | ATCC 19609 | 18 h, 37 °C | – | MBC | 15 µM (≈ 26.4 µg/mL)
OB(O)CSc1nc2ccccc2n1Cc1ccc(C(F)(F)F)cc1C(F)(F)F | – | mec operon, bla-negative | 8 mg/L, together with: oxacillin | – | oxacillin MIC | no effect
Cc1ccc2[nH]c3c(c2c1)CCCC3NCCc1ccc(Br)cc1 (stereo not drawn) | broth microdilution | – | – | – | MIC | 4 µg/mL
O=C(O)c1cn(C2CC2)c2cc(N3CCNCC3)c(F)cc2c1=O | – | ATCC 33591 MRSA | 2×MIC | – | biofilm inhibition | 1.5%
CC(=O)N[C@H]1[C@@H](O[C@@H]2O[C@H](C[C@@H](O)[C@H]3O[C@@H](n4ccc(=O)[nH]c4=O)[C@H](O)[C@@H]3O)[C@H](O)[C@H](O)[C@H]2NC(=O)/C=C/CCCCCCCCCC(C)C)O[C@H](CO)[C@@H](O)[C@@H]1O | resazurin microplate | 71080 (NR-46418) | – | – | MIC90 | 10.5 ± 0.379 µg/mL (≈ 12.6 µM)
Oc1c(Br)cc(Br)c2nc3ccccc3nc12 | – | MRSA 1707, DMSO stock | 10 µL of 10 mM, 16 h, together with: glutathione 200 µM | – | zone of inhibition | 5.47 ± 0.47 cm²
CN[C@H](CC(C)C)C(=O)N[C@H]1C(=O)N[C@@H](CC(N)=O)C(=O)N[C@H]2C(=O)N[C@H]3C(=O)N[C@H](C(=O)N[C@H](C(=O)O)c4cc(O)cc(O)c4-c4cc3ccc4O)[C@H](O)c3ccc(c(Cl)c3)Oc3cc2cc(c3O[C@@H]2O[C@H](CO)[C@@H](O)[C@H](O)[C@H]2O[C@H]2C[C@](C)(N)[C@H](O)[C@H](C)O2)Oc2ccc(cc2Cl)[C@H]1O | – | MRSA ATCC 33591 | 1/2 × MIC | – | biofilm inhibition | 97.4%
CCCCc1c([N+](=O)[O-])oc2ccc3ccccc3c12 | REMA | – | – | – | MIC90 | > 32 µg/mL
CC[C@H](C)[C@H](NC(=O)[C@H](Cc1ccccc1)NC(=O)[C@@H](NC(=O)[C@H](Cc1c[nH]c2ccccc12)NC(=O)[C@@H]1CCCN1C(=O)[C@@H](NC(=O)[C@H](C)N)[C@@H](C)CC)[C@@H](C)CC)C(=O)N[C@@H](Cc1ccccc1)C(=O)N[C@@H](CCCNC(=N)N)C(=O)N[C@@H](CC(C)C)C(=O)N[C@@H](CC(C)C)C(=O)N[C@@H](CCCNC(=N)N)C(=O)N[C@@H](CCCCN)C(=O)NCC(N)=O | – | ATCC 6051 | 18 h, 37 °C | – | MBC | 1.88 µM (≈ 3.25 µg/mL)
CC(C)CCCCCCCCCCCCCCCc1cc(O)cc(O)c1 | bacterial growth | MRSA USA300 | – | – | IC50 | > 200 µM
Nc1c([N+](=O)[O-])oc2ccc3ccccc3c12 | REMA | – | – | – | MIC90 | > 32 µg/mL
